{"data": "Measurements pooled from the literature", "note": "A part holds a random share of what one study measured."}
{"data": "Block 1", "target": "Ras GTPase-activating protein-binding protein 1, C-terminal RGG region (G3BP1, Homo sapiens, UniProt Q13283)", "technique": "RNA Bind-n-Seq", "molecule type": "RNA", "sample": "in vitro", "concentration": "1 µM", "notes": "whole 134-nt RNA, ends assumed", "added": "150 mM KCl", "baseline": "input library", "direction": "higher = stronger binding", "all sequences stand within": "GGGAGUUCUACAGUCCGACGAUC … UGGAAUUCUCGGGUGUCAAGG", "chain of UniProt Q13283 (whole entry, looked up)": "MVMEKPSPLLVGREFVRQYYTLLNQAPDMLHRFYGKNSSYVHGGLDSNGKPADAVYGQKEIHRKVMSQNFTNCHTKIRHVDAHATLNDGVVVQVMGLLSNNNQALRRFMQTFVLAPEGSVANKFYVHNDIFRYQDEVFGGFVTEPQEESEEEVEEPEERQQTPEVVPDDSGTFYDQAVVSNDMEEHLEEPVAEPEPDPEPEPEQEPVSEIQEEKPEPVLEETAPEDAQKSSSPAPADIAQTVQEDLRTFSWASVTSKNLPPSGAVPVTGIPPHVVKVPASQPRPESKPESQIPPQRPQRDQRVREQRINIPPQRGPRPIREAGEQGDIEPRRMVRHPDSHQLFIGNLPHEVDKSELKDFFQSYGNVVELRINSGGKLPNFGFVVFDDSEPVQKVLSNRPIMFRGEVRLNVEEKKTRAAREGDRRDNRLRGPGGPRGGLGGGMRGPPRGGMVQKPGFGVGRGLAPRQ"}
{"Oligonucleotide": "CAAGUCCUGUGCUACACAUCGUAUGUACCGAAUCGGGUUUUUGGGUGGGUUUGGGAAAGUAUUAUGUUACGCCGUUCGGAUCUGCACUUC", "log2 enrichment": 1.45}
{"Oligonucleotide": "UCCUCAAGUCCUGUGCUACACAUCGUAUGUACCGAAUCGGGUGGUGGGGUGGAAAGUAUUAUGUUACGCCGUUCGGAUCUGCACUUCCAG", "log2 enrichment": 0.0808}
{"Oligonucleotide": "CCUGUGCUACACAUCGUAUGUACCGAAUCGGGUUUUUUUGGUUUUUUUGGUUUUUUUGGGGAAAGUAUUAUGUUACGCCGUUCGGAUCUG", "log2 enrichment": -1.85}
{"Oligonucleotide": "CCUGUGCUACACAUCGUAUGUACCGAAUCGGGGUUUUUUUGGGGAAAAAGGGGAAAGGGGAAAGUAUUAUGUUACGCCGUUCGGAUCUGC", "log2 enrichment": 0.502}
{"Oligonucleotide": "UCCUGUGCUACACAUCGUAUGUACCGAAUCGGGAAAAAGGGGAAAAAGGGGAAAAAGGGGAAAGUAUUAUGUUACGCCGUUCGGAUCUGC", "log2 enrichment": -0.052}
{"Oligonucleotide": "UCCUCAAGUCCUGUGCUACACAUCGUAUGUACCGAAUCGGCGGGGCGGGCGGAAAGUAUUAUGUUACGCCGUUCGGAUCUGCACUUCCAG", "log2 enrichment": -0.437}
{"data": "Block 2", "target": "Interferon regulatory factor 7, full length, phosphomimetic (IRF7, Homo sapiens, UniProt Q92985, residues 1-503, S101K/S471D/S472D/S475D/S476D/S477D/S483D/S484D/S487D)", "technique": "protein-binding microarray", "molecule type": "double-stranded DNA, one strand shown", "sample": "in vitro", "concentration": "250 nM", "notes": "60-bp whole probe", "added": "salmon DNA 0.4 mg/ml", "baseline": "random background probes", "direction": "higher = stronger binding", "all sequences stand within": "GCCTAGCAC … GTCTTGATTCGCTTGACGCTGCTG", "Residues (chain)": "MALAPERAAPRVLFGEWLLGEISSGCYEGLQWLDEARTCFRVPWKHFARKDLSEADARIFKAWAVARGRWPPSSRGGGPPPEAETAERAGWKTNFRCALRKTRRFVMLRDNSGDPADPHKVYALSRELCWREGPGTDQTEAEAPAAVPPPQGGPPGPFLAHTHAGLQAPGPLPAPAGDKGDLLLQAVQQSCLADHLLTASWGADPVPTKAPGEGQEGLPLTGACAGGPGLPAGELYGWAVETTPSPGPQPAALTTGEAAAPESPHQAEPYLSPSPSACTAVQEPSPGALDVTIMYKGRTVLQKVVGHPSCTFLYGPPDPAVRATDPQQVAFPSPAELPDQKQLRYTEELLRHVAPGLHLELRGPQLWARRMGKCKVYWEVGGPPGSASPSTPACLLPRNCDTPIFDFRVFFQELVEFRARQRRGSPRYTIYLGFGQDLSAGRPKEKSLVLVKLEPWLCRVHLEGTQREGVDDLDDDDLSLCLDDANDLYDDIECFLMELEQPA"}
{"Oligonucleotide": "GACGGTCTCGGTATCGGGACGTGCTAG", "log fluorescence [z-score]": 1.54}
{"Oligonucleotide": "TTAGGCATCGGGTTTCGGTTAGTGCTA", "log fluorescence [z-score]": 5.56}
{"Oligonucleotide": "TTGGGTTTCCTTATCCTTTAGTGCTAG", "log fluorescence [z-score]": 1.97}
{"Oligonucleotide": "TTAGGTCTCATTATCCTTTAGTGCTAG", "log fluorescence [z-score]": 1.06}
{"Oligonucleotide": "TTAGAGCTGGGGACTGGATTAGTGCTA", "log fluorescence [z-score]": -0.702}
{"Oligonucleotide": "GACGGTATCGGTCTCGGGATGTGCTAG", "log fluorescence [z-score]": 1.07}
{"Oligonucleotide": "CTCAGTTTATTTATTTTTACGTGCTAG", "log fluorescence [z-score]": 0.377}
{"Oligonucleotide": "TTAGGTCTCAGACTGGGTTAGTGCTAG", "log fluorescence [z-score]": -0.0727}
{"Oligonucleotide": "CTTTCTCTCTGTGACACAGAGTGCTAG", "log fluorescence [z-score]": 2.74}
{"data": "Block 3", "target": "Histone acetyltransferase KAT6A, both winged helices, GST fusion (KAT6A, Homo sapiens, UniProt Q92794, residues 1-181)", "technique": "protein binding microarray", "molecule type": "double-stranded DNA, one strand shown", "sample": "in vitro", "concentration": "not given", "notes": "8-mer, flanks averaged, mean of 2 arrays, mostly near background", "baseline": "not given", "direction": "higher = stronger binding", "Construct (chain)": "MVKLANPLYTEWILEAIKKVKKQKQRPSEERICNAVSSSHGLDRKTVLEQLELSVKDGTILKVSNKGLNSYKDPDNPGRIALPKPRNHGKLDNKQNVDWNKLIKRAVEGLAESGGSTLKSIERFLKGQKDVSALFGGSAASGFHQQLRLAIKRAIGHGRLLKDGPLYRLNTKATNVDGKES"}
{"Oligonucleotide": "CCTCGTGC", "E-score": -0.0463}
{"Oligonucleotide": "ATAAAGGC", "E-score": -0.0807}
{"Oligonucleotide": "CCATATCA", "E-score": -0.0765}
{"Oligonucleotide": "ACCTGCAT", "E-score": -0.104}
{"Oligonucleotide": "ATTCTGTG", "E-score": -0.0588}
{"Oligonucleotide": "ACTTTGCA", "E-score": -0.233}
{"Oligonucleotide": "TGGCTAAA", "E-score": -0.0427}
{"Oligonucleotide": "CAAAGGTG", "E-score": -0.105}
{"Oligonucleotide": "CTAGTCGC", "E-score": 0.073}
{"Oligonucleotide": "ATGTTCCG", "E-score": 0.138}
{"data": "Mixed results"}
{"Molecule": "PhoQ, residues 284 288 289 292 302 303 GLASVI", "target": "PhoP, residues 12 14 15 18 19 GHCSL (Escherichia coli, UniProt P23836)", "assay": "Sort-seq, measured: YFP reporter", "system": "E. coli", "conditions": "PhoQ-PhoP variant library, added: 10 µM Mg2+", "how to read": "baseline: high Mg2+ state, higher = stronger signaling", "quantity": "fold induction", "result": 21.9}
{"note": "For quick reference, copied from above (block 3):"}
{"Oligonucleotide": "ATTCTGTG", "E-score": -0.0588}
{"Oligonucleotide": "ACTTTGCA", "E-score": -0.233}
{"Oligonucleotide": "TGGCTAAA", "E-score": -0.0427}
{"Oligonucleotide": "CAAAGGTG", "E-score": -0.105}
